Measured values gathered from unrelated publications.
“And” joins repeats or separate records; there may be more than shown. ± gives the spread as reported.
Protein AF-9 with DOT1L: Protein AF-9, with DOT1L (Homo sapiens, UniProt P42568)
Chain of UniProt P42568 (whole entry, looked up): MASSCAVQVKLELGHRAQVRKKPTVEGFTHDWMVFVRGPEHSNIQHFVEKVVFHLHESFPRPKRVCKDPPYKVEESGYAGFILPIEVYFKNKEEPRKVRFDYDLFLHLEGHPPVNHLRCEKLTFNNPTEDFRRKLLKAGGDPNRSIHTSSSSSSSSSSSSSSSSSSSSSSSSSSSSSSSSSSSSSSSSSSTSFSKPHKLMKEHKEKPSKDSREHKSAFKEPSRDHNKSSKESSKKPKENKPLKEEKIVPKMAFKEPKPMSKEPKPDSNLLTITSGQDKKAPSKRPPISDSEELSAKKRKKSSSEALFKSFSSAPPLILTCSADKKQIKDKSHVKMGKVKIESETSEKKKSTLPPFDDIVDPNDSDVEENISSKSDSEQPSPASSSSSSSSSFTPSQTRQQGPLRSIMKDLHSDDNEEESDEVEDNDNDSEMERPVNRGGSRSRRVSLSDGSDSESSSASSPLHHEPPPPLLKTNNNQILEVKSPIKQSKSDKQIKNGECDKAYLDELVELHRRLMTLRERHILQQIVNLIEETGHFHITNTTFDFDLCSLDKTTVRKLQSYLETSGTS
CSNK1D: Casein kinase I isoform delta (CSNK1D, Homo sapiens, UniProt P48730)
Chain of UniProt P48730 (whole entry, looked up): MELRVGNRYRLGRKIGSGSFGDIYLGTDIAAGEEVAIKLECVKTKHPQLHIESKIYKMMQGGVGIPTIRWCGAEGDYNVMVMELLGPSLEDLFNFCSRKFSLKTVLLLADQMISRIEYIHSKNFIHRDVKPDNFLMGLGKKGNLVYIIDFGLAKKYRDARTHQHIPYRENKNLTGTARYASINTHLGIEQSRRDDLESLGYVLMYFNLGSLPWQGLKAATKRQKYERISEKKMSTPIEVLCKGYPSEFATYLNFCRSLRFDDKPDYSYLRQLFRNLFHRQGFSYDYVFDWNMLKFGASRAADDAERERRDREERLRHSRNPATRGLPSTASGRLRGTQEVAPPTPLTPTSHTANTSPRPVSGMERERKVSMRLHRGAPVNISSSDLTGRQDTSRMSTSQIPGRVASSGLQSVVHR
BRD9: Bromodomain-containing protein 9 (BRD9, Homo sapiens, UniProt Q9H8M2)
Chain of UniProt Q9H8M2 (whole entry, looked up): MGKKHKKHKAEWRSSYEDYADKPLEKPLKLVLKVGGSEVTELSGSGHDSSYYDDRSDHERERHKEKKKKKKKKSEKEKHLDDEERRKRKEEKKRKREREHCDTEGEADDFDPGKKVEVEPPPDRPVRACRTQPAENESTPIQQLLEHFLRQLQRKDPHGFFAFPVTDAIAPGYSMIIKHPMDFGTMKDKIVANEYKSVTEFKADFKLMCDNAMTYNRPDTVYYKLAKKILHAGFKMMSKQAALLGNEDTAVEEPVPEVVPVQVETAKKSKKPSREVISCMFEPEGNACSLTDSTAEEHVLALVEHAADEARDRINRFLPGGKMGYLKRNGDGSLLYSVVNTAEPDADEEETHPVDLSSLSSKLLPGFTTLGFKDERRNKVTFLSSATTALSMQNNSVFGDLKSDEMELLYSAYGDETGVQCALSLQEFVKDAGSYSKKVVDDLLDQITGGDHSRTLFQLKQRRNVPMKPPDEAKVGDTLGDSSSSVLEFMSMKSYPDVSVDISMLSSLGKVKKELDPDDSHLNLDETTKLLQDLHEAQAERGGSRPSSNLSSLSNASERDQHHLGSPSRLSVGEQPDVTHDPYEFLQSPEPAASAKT
Cacna1c: Voltage-dependent L-type calcium channel subunit alpha-1C (Cacna1c, Mus musculus, UniProt Q01815)
Chain of UniProt Q01815 (whole entry, looked up): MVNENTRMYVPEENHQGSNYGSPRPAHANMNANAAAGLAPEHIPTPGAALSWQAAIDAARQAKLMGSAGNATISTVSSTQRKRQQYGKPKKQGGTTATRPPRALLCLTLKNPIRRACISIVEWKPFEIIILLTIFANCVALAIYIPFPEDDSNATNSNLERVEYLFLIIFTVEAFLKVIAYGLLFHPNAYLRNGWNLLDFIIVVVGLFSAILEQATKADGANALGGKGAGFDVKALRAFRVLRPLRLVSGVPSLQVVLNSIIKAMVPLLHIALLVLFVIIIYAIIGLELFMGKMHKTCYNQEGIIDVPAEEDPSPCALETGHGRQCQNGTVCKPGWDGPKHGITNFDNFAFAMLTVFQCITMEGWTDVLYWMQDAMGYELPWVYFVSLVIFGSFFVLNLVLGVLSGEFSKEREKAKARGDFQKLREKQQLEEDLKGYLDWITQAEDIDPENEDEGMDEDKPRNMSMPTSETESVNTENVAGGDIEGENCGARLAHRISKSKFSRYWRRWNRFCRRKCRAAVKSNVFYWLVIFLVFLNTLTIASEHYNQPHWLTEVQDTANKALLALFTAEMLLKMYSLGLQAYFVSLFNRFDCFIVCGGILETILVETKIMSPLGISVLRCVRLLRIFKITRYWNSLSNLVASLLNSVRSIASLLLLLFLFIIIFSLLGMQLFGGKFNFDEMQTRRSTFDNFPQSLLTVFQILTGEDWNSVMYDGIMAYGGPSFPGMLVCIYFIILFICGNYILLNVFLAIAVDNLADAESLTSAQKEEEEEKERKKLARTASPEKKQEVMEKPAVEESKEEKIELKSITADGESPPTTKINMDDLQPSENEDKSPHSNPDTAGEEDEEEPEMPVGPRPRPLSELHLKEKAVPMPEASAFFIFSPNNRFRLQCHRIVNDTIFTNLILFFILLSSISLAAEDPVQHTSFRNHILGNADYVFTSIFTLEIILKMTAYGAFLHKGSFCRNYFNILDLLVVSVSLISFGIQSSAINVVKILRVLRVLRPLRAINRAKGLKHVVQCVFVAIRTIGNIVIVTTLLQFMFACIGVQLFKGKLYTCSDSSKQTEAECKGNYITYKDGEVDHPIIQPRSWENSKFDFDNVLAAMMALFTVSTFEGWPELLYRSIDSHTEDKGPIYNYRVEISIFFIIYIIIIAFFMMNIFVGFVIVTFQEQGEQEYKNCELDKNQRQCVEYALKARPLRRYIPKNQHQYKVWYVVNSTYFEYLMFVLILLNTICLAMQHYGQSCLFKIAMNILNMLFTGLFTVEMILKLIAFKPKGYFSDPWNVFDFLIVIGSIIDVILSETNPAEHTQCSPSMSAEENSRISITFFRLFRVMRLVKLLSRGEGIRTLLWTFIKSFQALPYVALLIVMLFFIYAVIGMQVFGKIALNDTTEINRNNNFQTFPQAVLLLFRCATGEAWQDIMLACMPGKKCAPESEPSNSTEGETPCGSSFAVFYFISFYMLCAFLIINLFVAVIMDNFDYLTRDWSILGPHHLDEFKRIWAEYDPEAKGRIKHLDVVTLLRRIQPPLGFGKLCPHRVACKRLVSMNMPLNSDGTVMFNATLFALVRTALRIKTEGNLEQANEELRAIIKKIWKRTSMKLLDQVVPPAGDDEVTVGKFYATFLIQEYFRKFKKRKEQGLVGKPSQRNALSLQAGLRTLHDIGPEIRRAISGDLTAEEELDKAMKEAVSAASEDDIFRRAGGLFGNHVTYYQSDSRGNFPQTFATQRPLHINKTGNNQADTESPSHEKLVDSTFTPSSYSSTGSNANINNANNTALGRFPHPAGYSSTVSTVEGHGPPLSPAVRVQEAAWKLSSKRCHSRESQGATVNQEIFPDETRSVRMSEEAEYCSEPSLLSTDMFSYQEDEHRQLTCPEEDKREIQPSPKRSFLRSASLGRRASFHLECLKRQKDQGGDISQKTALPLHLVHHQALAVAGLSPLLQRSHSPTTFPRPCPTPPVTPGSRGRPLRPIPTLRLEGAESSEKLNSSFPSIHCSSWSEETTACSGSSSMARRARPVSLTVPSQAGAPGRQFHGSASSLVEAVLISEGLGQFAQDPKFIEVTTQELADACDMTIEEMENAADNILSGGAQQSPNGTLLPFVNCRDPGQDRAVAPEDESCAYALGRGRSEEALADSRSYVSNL
MAP3K1: Mitogen-activated protein kinase kinase kinase 1 (MAP3K1, Homo sapiens, UniProt Q13233)
CD274: Programmed cell death 1 ligand 1 (CD274, Homo sapiens, UniProt Q9NZQ7)
Chain of UniProt Q8IWT6 (whole entry, unmodified, looked up): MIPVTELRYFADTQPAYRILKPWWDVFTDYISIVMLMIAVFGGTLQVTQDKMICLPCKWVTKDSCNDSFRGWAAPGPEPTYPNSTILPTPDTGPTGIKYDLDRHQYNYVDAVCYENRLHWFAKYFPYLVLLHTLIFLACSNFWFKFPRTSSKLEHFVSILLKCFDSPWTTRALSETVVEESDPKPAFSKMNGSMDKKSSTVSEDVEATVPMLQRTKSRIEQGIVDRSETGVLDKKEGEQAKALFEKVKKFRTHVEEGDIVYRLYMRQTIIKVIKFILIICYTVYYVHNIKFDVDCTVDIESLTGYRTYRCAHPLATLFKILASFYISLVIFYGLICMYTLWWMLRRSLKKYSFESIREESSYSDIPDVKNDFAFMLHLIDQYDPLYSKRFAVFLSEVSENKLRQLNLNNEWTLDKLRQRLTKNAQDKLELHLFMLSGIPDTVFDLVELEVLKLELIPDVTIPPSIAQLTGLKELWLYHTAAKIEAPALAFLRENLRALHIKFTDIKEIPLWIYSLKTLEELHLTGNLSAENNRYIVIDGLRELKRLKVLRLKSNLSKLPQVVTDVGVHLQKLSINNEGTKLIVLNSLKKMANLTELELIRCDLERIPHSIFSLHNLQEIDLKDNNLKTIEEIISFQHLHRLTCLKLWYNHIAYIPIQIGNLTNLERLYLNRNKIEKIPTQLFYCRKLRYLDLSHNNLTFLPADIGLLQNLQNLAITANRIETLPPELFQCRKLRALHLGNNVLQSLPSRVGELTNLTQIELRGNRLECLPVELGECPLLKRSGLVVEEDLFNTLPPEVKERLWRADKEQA
Chain of UniProt Q9NZQ7 (whole entry, looked up): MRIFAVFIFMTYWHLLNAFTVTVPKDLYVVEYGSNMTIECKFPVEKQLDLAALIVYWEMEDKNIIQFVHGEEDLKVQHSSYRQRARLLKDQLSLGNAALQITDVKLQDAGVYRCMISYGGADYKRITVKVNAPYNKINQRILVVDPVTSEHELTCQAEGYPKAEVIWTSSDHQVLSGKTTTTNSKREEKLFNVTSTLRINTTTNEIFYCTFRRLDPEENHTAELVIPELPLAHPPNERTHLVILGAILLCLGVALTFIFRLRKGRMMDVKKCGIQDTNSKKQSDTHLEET

Structure (SMILES) | target | assay | test system | setting | how to read | inhibition
c1cc(-c2ccc3ncc(OCC4CCNCC4)nc3c2)ccc1CN1CCOCC1 | Protein AF-9 with DOT1L | DOT1L binding, AlphaLISA | – | 10 µM | – | 14.2%
CC[C@H](C)[C@H](NC(=O)[C@H](CCSC)NC(=O)[C@@H](NC(=O)[C@H](Cc1c[nH]c2ccccc12)NC(=O)[C@H](Cc1c[nH]c2ccccc12)NC(=O)CNC(C)=O)C(C)C)C(=O)N[C@@H](Cc1ccccc1)C(N)=O | Programmed cell death 1 ligand 1, with PD-1 (CD274, Homo sapiens, UniProt Q9NZQ7) | PD-1/PD-L1 binding, ELISA | – | 10 µM | – | 92.2 ± 1%
Cc1ccc(CNC(=O)[C@H](CCc2ccccc2)NC(=O)[C@H](CCc2ccccc2)NC(=O)[C@H](CCc2ccccc2)NC(=O)c2cnc(C)cn2)cc1 | Prothrombin (F2, Homo sapiens, UniProt P00734) | enzyme activity | – | 100 µM | – | 22%
Fc1ccc(-c2ncn(-c3ccccc3)c2-c2ccncc2)cc1 | CSNK1D | inhibitor | – | 1 µM | – | 33%
CC[C@@H]1[C@H](F)C(=O)N[C@@H]1COc1nccc2cc(C(N)=O)c(OC)cc12 | CHEK2 (Homo sapiens, UniProt O96017) | ATP-site probe binding, ActivX profiling | THP-1 cell lysate | 0.2 mM, Lys2 site | – | -0.254%
O=C(Nc1cccc2c(=O)cc(-c3nnn[nH]3)oc12)c1ccc(OCCCCc2ccccc2)cc1 | LRRC8A/LRRC8C (Homo sapiens, UniProt Q8IWT6+Q8TDW0, M48D/T48D) | ion current, whole-cell patch clamp | HCT LRRC8-/- cells | 3 µM, +100 mV, T48D/M48D heteromers | – | 7.38% and -2.61% and 3.61%
COc1c(C#N)ccnc1N1C2CCC1CN(C(=O)c1cccnc1-n1cccn1)C2 | SK calcium-activated potassium channel | binding | – | 10 µM | – | -12.2%
O=C(NO)c1ccc(CN2CCCCc3ccccc32)c(F)c1 | ADRA1B (Homo sapiens, UniProt P35368) | radioligand binding, PDSP radioligand binding | – | 10 µM | – | -5.21%
CCN(C)Cc1c(OC)cc(-c2cc(C(C)=O)n3ccccc23)cc1OC | BRD9 | AlphaScreen | – | 1 µM | – | 95.2%
CC(C)c1noc2ncc(C(=O)c3ccccc3O)cc12 | Cacna1c | ion current, inhibitor, whole-cell patch clamp | – | 10 µM | – | 7.71% and 15.3% and 27.3% and 7.33% and 20.3%
Cn1ncc2c(NC(P(=O)(O)O)P(=O)(O)O)nc(-c3cccc(C(=O)Nc4ccc(C(F)(F)F)cc4)c3)nc21 | FDPS (Homo sapiens, UniProt P14324) | enzyme activity | – | 1 µM, 10 min preincubation | – | no inhibition
CCc1oc2ccccc2c1C(=O)c1cc(Br)c(O)c(Br)c1 | SLC22A12 (Homo sapiens, UniProt Q96S37, H245A) | uric acid uptake | HEK293T transfected with SLC22A12 H245A | 0.5 µM, 10 min, 37 °C, mean, with: [14C]urate 200 µM | – | 69.3%
Cc1cccc(-c2nc(C(O)C3=CCCCC3)[nH]c2-c2ccncc2)c1 (centres unmarked) | CSNK1D | kinase activity | – | 1 µM | – | 0%
Cc1ccc(C(=O)Nc2ccc3ccccc3c2)o1 | Cacna1c | ion current, whole-cell patch-clamp | – | 10 µM | – | 7.38%
Fc1cccc(Nc2ccc3ncc(OCC4CCNCC4)nc3c2)c1 | Protein AF-9 with DOT1L | DOT1L binding, AlphaLISA | – | 10 µM | – | 19 to 40%
[2H]c1cc(C)c(NC(=O)c2cnc(Nc3cc(N4CCCCC4)nc(C)n3)s2)c(Cl)c1 | RET (Homo sapiens, UniProt P07949, M918T) | – | – | 0.01 µM | – | < 30%
CN1CCN(c2cc(-c3ccncc3)c(-c3ccc4ccccc4c3)nn2)CC1 | CXCR1 (Homo sapiens, UniProt P25024) | antagonist, FLIPR | – | 10 µM | – | 10.7%
COc1cc(C(=O)NS(=O)(=O)c2ccccc2C)ccc1Cc1cn(C)c2ccc(NC(=O)OC3CCCC3)cc12 | Volume-regulated anion channel subunit LRRC8C, part LRRC8A IL1 chimera (LRRC8C, Homo sapiens, UniProt Q8TDW0, M48D) | ion current, inhibitor, whole-cell patch clamp | HCT LRRC8-/- cells | 3 µM, constitutively open channel, +100 mV | – | 15.4% and 7.6% and 16.6% and 20% and 23.5% and 2.13%
c1ccc(-c2ccc(-c3ccc4ncc(OCC5CCNCC5)nc4c3)cc2)cc1 | Protein AF-9 with DOT1L | DOT1L binding, AlphaLISA | – | 10 µM | – | 14 to 17%
COc1cc(Cl)c(C(=O)N[C@@H](CN[C@H]2CC[C@@H](N)CC2)Cc2ccc(C#N)cc2)cc1-c1ccc(CN[C@H](C)c2ccc(C)cc2)o1 | Oprk1 (Rattus norvegicus, UniProt P34975) | agonist response, antagonist | – | 10 µM | reference: agonist control | 62%
CCc1nn(C)c2nc(-c3ccc(C(=O)O)cc3)nc(NCc3ccc(F)cc3)c12 | PDE2A (Homo sapiens, UniProt O00408) | inhibitor | – | 10 µM, mean of replicates, with: [3H]cAMP | reference: control | 36.4%
Cn1cc(-c2cnc3ccc(NC(=O)Nc4ccc(F)c(Br)c4)cc3n2)cn1 | MAP3K1 | kinase binding, KiNativ profiling, item: Lys2 peptide | PANC-1 lysate | 5 µM | – | 54.6%

Structure (SMILES) | target | assay | test system | setting | how to read | inhibition
COc1ccc(C(=O)/C=C/c2cccc(-c3cccc(-c4ccc(CNCC(C)(C)C(N)=O)c(OC)n4)c3C)c2)cc1 | CD274 | binding, inhibitor, HTRF | – | 1 µM | – | 7 ± 1.7%
CC(C)(C)c1ccc(Nc2ccc3ncc(OCC4CCNCC4)nc3c2)cc1 | Protein AF-9 with DOT1L | DOT1L binding, AlphaLISA | – | 10 µM | – | 37%
C[C@H]1[C@H](OC(=O)CCC(=O)O)O[C@@H]2O[C@@]3(C)CC[C@H]4[C@H](C)CC[C@@H]1[C@@]24OO3 | Non-structural polyprotein pORF1, helicase domain (Hepatitis E virus genotype 1, UniProt P33424) | ATPase activity, inhibitor, colorimetric | – | 156 µM, with: ATP 100 µM | – | 49.9%
CC/C(=N\NC(=O)NCc1cccc(O)c1)c1ccc(O)c(C)c1O | MAP3K1 | kinase activity | – | 0.1 µM | – | 1.9%
Cc1c(COc2ccc(CN3CCCCC3C(=O)NCCNC(=O)CN(C)CCCC34CCC(c5ccccc53)c3ccccc34)cc2Br)cccc1-c1ccccc1 (centres unmarked) | CD274 | binding, inhibitor, HTRF | – | 1 µM | – | 8.3 ± 1.9%
COc1cc(-c2cc(C(C)=O)n3ccccc23)cc(OC)c1Cn1ccnc1 | BRD9 | AlphaScreen | – | 1 µM | – | 94.7%
c1ccc(Oc2ccc(-c3ccc4ncc(OCC5CCNCC5)nc4c3)cc2)cc1 | Protein AF-9 with DOT1L | DOT1L binding, AlphaLISA | – | 10 µM | – | 0 to 21%
Cc1ccc(-n2nc(C)c3conc3c2=O)cc1 | GABAA receptor | binding, radioligand displacement | – | concentration not given, with: muscimol radioligand | – | -13.4%
NC/C(=C\F)COc1cccc(Cn2c(=S)[nH]c(=O)c3[nH]cnc32)c1 | GABBR1 (Homo sapiens, UniProt Q9UBS5) | radioligand binding | – | 10 µM | – | < 50%
COc1ccccc1-c1cc(C(C)=O)n2ccccc12 | BRD9 | AlphaScreen | – | 1 µM | – | 61.2%
COc1ccc(C(=O)/C=C/c2cccc(-c3cccc(-c4ccc(CNC5CCC(=O)NC5=O)c(OC)n4)c3C)c2)cc1 (centres unmarked) | CD274 | binding, inhibitor, HTRF | – | 1 µM | – | 13.5 ± 2.1%
CC[C@]12CCCN3CCc4c([nH]c5ccccc45)[C@]31N(Cc1cn(Cc3ccccc3)nn1)C(=O)C2 | FPR1 (Homo sapiens, UniProt P21462) | beta-arrestin recruitment, antagonist, PathHunter chemiluminescence | – | 20 µM, with: agonist at EC80 | – | 6%
COc1ccc(OC)c(-c2cc(C(C)=O)n3ccccc23)c1 | BRD9 | AlphaScreen | – | 1 µM | – | > 90%
COc1nc(-c2cccc(-c3ccccc3)c2C)ccc1CNCCNC(=O)CCCCCCCCCCCN1CCN(CCNC(=O)c2cc3c(=O)n4cccc(C)c4nc3n(CCc3cccs3)c2=N)CC1 | CD274 | binding, inhibitor, HTRF | – | 1 µM | – | 54.2 ± 3.1%
CCCC(=S)NCCCC[C@H](NS(C)(=O)=O)C(=O)N[C@H](C)C(=O)N[C@@H](CCCNC(=N)N)C(N)=O | SIRT3 (Homo sapiens, UniProt Q9NTG7) | enzyme activity, inhibitor | – | 10 µM | – | < 5%
c1ccc(COc2ccc(-c3ccc4ncc(OCC5CCNCC5)nc4c3)cc2)cc1 | Protein AF-9 with DOT1L | DOT1L binding, AlphaLISA | – | 10 µM | – | 0 to 21%
COc1cc(OC)cc(-c2cc(C(C)=O)n3ccccc23)c1 | BRD9 | binding, inhibitor, AlphaScreen | – | 1 µM | – | 93.2%
c1ccc(-c2ccc(Nc3ccc4ncc(OCC5CCNCC5)nc4c3)cc2)cc1 | Protein AF-9 with DOT1L | DOT1L binding, AlphaLISA | – | 10 µM | – | 65%
CNC(=O)c1cc(OC)c(-c2cc(C(C)=O)n3ccccc23)cc1OC | BRD9 | AlphaScreen | – | 1 µM | – | 94.6%
Cc1cc(O)c(-c2ccc([C@@H](C)CN(C)C)cc2)c2c1[nH]c(=O)c1sccc12 | Diacylglycerol kinase eta (DGKH, Homo sapiens, UniProt Q86XP1) | inhibitor, KiNativ probe labelling | cell lysate | 0.1 µM | – | 13.5%
COCc1cc(OC)c(-c2cc(C(C)=O)n3ccccc23)cc1OC | BRD9 | AlphaScreen | – | 1 µM | – | 94.4%
Ic1cccc2cnccc12 | sodium channel site 2 (rat) | radioligand binding, inhibitor | – | 10 µM | – | 10%

A few entries again:
Structure (SMILES) | target | assay | test system | setting | how to read | inhibition
O=C(NO)c1ccc(CN2CCCCc3ccccc32)c(F)c1 | ADRA1B (Homo sapiens, UniProt P35368) | radioligand binding, PDSP radioligand binding | – | 10 µM | – | -5.21%
CCN(C)Cc1c(OC)cc(-c2cc(C(C)=O)n3ccccc23)cc1OC | BRD9 | AlphaScreen | – | 1 µM | – | 95.2%
CC(C)c1noc2ncc(C(=O)c3ccccc3O)cc12 | Cacna1c | ion current, inhibitor, whole-cell patch clamp | – | 10 µM | – | 7.71% and 15.3% and 27.3% and 7.33% and 20.3%
Cn1ncc2c(NC(P(=O)(O)O)P(=O)(O)O)nc(-c3cccc(C(=O)Nc4ccc(C(F)(F)F)cc4)c3)nc21 | FDPS (Homo sapiens, UniProt P14324) | enzyme activity | – | 1 µM, 10 min preincubation | – | no inhibition
CCc1oc2ccccc2c1C(=O)c1cc(Br)c(O)c(Br)c1 | SLC22A12 (Homo sapiens, UniProt Q96S37, H245A) | uric acid uptake | HEK293T transfected with SLC22A12 H245A | 0.5 µM, 10 min, 37 °C, mean, with: [14C]urate 200 µM | – | 69.3%
Cc1cccc(-c2nc(C(O)C3=CCCCC3)[nH]c2-c2ccncc2)c1 (centres unmarked) | CSNK1D | kinase activity | – | 1 µM | – | 0%
Cc1ccc(C(=O)Nc2ccc3ccccc3c2)o1 | Cacna1c | ion current, whole-cell patch-clamp | – | 10 µM | – | 7.38%
